Results pooled from the literature.
Each numbered part is a random draw from the data of one study; scales do not carry over between parts. Several values in a cell are separate wells, animals, samples, runs or records.
Chain of UniProt Q7KZI7 (whole entry, looked up): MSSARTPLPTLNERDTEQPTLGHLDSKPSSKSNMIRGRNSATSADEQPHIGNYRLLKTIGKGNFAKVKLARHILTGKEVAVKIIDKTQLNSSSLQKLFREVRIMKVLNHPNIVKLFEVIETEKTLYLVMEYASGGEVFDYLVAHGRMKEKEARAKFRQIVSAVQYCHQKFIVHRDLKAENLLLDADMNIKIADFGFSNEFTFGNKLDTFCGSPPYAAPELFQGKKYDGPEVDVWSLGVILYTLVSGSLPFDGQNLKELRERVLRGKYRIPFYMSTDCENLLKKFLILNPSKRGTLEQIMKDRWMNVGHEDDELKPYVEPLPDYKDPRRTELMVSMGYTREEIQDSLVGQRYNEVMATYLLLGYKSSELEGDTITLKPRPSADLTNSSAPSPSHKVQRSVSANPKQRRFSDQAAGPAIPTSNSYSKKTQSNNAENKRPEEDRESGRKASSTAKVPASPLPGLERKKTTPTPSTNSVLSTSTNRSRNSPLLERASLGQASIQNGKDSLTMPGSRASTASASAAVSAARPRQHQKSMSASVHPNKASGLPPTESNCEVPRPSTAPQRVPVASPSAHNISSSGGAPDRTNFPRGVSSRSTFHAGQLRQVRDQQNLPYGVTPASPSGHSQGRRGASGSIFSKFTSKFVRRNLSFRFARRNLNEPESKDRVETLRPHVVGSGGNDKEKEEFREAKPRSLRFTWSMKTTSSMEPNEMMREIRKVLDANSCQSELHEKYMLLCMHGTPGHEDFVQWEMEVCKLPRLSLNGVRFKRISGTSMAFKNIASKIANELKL
Chain of UniProt Q9BRS2 (whole entry, looked up): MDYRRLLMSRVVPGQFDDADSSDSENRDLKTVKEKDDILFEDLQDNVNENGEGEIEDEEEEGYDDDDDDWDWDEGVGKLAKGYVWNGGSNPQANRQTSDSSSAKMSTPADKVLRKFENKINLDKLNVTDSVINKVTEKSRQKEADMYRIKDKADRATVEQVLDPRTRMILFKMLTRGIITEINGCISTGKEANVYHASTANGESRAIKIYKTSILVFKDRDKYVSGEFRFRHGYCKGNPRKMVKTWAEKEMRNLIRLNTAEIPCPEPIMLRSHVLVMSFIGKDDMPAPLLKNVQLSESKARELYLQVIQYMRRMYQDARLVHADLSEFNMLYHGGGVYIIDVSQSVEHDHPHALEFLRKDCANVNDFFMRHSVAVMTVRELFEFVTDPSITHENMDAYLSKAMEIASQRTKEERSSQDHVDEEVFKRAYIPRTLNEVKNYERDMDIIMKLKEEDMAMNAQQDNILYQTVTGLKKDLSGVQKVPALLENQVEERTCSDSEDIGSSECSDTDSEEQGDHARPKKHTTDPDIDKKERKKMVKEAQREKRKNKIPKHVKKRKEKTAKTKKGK
Chain of UniProt P31751 (whole entry, looked up): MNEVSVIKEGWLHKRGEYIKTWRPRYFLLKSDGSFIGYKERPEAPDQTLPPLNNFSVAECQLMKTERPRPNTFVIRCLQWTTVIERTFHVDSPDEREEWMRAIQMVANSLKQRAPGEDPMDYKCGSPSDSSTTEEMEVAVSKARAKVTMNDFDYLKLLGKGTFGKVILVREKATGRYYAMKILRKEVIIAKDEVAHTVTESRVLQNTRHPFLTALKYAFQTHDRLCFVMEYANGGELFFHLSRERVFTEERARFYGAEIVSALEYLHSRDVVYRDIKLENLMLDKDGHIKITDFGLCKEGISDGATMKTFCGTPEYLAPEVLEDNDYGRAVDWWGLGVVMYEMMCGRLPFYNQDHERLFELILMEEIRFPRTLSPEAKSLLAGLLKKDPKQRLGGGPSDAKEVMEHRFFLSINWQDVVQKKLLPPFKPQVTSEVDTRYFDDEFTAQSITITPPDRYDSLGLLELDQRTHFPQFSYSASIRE
Chain of UniProt Q8N568 (whole entry, looked up): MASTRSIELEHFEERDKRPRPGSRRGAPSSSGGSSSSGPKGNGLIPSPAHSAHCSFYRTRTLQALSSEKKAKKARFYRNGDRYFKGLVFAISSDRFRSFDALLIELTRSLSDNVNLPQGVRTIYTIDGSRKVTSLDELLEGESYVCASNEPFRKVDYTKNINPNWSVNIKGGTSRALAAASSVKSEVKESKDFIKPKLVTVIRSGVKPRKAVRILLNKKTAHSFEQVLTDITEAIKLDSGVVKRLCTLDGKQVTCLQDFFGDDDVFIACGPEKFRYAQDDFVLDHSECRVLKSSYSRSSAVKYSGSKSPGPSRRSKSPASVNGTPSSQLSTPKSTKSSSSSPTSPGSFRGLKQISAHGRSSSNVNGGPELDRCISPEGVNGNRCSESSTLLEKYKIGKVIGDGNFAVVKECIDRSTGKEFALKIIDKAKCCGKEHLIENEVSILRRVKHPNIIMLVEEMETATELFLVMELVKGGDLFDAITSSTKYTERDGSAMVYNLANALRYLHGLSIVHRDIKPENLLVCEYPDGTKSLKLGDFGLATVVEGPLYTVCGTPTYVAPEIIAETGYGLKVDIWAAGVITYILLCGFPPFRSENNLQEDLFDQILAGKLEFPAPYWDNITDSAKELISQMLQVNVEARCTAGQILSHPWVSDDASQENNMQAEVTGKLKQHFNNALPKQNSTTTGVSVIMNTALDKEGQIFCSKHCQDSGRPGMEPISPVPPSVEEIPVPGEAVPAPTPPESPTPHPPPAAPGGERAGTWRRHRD
Chain of UniProt P08581 (whole entry, looked up): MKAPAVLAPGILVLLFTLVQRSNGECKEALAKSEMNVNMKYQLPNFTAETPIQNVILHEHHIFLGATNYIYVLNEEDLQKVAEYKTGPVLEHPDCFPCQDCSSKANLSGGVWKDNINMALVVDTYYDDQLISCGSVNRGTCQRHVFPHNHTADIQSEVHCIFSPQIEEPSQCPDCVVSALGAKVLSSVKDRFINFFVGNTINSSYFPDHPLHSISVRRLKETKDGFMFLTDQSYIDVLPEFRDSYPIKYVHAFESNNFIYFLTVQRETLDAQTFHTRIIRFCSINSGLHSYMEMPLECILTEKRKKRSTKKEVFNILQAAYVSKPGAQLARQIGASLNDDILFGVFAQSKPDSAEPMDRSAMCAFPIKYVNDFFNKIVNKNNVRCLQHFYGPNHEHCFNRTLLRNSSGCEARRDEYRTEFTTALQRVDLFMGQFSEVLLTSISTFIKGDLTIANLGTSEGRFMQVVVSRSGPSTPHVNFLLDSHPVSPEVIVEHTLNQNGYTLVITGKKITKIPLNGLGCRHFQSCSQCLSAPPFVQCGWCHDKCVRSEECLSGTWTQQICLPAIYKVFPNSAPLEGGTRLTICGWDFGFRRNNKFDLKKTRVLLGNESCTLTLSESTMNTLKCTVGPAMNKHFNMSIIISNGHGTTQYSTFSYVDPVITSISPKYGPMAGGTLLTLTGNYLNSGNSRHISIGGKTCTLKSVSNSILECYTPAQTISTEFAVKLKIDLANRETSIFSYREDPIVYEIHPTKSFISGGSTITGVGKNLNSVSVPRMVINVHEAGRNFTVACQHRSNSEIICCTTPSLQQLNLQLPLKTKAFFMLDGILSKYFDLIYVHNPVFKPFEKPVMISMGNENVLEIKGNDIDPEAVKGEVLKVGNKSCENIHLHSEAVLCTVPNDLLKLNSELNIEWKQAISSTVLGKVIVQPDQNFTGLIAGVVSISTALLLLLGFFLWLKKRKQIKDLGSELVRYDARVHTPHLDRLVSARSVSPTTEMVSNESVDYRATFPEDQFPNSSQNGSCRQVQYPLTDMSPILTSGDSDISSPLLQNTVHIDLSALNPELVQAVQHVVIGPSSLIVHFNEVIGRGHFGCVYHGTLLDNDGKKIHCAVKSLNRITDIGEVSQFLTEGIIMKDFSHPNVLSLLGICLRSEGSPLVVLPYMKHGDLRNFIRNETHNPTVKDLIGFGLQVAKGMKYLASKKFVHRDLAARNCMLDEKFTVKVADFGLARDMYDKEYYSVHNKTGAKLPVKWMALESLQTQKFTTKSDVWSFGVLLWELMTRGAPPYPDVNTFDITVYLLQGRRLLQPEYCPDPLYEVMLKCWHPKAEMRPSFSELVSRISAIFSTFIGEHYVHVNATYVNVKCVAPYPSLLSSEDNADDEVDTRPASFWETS
Chain of UniProt Q16832 (whole entry, looked up): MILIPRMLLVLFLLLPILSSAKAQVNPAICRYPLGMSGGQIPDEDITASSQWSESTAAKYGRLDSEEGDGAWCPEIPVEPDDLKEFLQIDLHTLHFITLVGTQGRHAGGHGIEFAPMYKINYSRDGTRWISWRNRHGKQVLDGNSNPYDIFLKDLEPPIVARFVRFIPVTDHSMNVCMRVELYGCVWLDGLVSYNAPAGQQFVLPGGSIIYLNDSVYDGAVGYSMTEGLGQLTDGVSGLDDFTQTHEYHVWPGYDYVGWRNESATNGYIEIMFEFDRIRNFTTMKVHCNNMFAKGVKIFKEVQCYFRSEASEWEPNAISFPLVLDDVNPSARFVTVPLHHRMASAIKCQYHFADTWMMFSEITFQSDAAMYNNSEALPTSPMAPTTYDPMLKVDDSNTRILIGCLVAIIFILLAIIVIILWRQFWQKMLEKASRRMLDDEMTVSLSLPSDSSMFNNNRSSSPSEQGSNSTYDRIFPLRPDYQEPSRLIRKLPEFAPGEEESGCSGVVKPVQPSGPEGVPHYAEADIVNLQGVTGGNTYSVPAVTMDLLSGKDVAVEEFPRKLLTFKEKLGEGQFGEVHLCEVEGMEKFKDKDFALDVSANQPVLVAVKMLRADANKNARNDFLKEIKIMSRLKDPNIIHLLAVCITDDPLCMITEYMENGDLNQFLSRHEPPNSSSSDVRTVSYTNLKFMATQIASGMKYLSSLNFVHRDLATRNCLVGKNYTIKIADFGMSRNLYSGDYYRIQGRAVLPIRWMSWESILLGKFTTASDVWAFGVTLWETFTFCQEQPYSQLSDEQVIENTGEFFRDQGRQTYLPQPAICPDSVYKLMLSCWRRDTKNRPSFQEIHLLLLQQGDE

Set 1 — cell line: mouse MPNST tumor cells; technique: high-content nuclear imaging; measured: cell number; tested at: 10 µM; time: 12 h; notes: mean of 2 replicates; reference: plate mean; direction: higher = more cells; quantity: nuclei count
CCC(CC)(CC(=O)Nc1cccc(/C=C/c2nc(C3CCC3)cs2)c1)C(=O)O: -0.616 z-score
C[C@H](N)COC(=O)[C@H](CCCCN)NC(=O)Cc1c(-c2ccc3ccccc3c2)[nH]c2c1ccc1ccccc12: 1.28 z-score
COc1cc(C(=O)NCc2ccc(OCCN(C)C)cc2)cc(OC)c1OC: 1.11 z-score and 0.698 z-score
CN(CC[C@@H](Oc1ccc(-c2ccccc2)cc1)c1ccc(F)cc1)CC(=O)O: 1.61 z-score
CCOC(=O)[C@@H](C)Oc1cccc2c(=O)n(CC(=O)Nc3ccc4c(c3)OCCO4)ccc12: 0.326 z-score

Set 2 — read-out: cell-free assay; technique: competition with immobilised ligand; tested at: 1 µM; quantity: remaining binding
Compound: NS(=O)(=O)c1cc(NC(=O)Cc2ccccc2)ccc1Oc1cccc(Cl)c1
Mast/stem cell growth factor receptor Kit, autoinhibited (KIT, Homo sapiens, UniProt P10721): 87%
Mitogen-activated protein kinase kinase kinase 12 (MAP3K12, Homo sapiens, UniProt Q12852): 80%
Insulin receptor (INSR, Homo sapiens, UniProt P06213): 100%
Atypical kinase COQ8A, mitochondrial (COQ8A, Homo sapiens, UniProt Q8NI60): 94%
Protein kinase C iota type (PRKCI, Homo sapiens, UniProt P41743): 93%
Serine/threonine-protein kinase RIO1 (RIOK1, Homo sapiens, UniProt Q9BRS2): 93%

Set 3 — read-out: acetyl-histone H4 peptide binding; technique: AlphaScreen displacement; tested at: 50 µM; quantity: inhibition
Target: Bromodomain-containing protein 4, BD1 (BRD4, Homo sapiens, UniProt O60885)
Cc1cc(C(=O)C(C#N)=Cc2ccncc2)c(C)n1-c1ccccc1F: 38.9%
N#CC(=Cc1ccco1)c1nc2ccccc2s1: 30.4%
Cc1cn([C@H]2C[C@H](N=[N+]=[N-])[C@@H](CO)O2)c(=O)[nH]c1=O: 4.8%
COc1cccc(Nc2ncc3c(n2)CCNC3)c1: 10.7%
Cc1sc2nc[nH]c(=O)c2c1-c1ccc(F)cc1: 6.2%

Set 4 — read-out: enzyme activity; action: inhibitor; tested at: 0.5 µM; reference: control; quantity: remaining activity
Compound: CC(C)(C)n1nc(Cc2cccc3ccccc23)c2c(N)ncnc21
Ribosomal protein S6 kinase alpha-4 (RPS6KA4, Homo sapiens, UniProt O75676): 106%
Myosin-IIIb (MYO3B, Homo sapiens, UniProt Q8WXR4): 88.2%
Hepatocyte growth factor receptor (MET, Homo sapiens, UniProt P08581): 93.1%
Mitogen-activated protein kinase 14 (MAPK14, Homo sapiens, UniProt Q16539): 63.3%
RAC-beta serine/threonine-protein kinase (AKT2, Homo sapiens, UniProt P31751): 102%
Serine/threonine-protein kinase DCLK2 (DCLK2, Homo sapiens, UniProt Q8N568): 93%
Discoidin domain-containing receptor 2 (DDR2, Homo sapiens, UniProt Q16832): 121%
Serine/threonine-protein kinase PLK3 (PLK3, Homo sapiens, UniProt Q9H4B4): 95%
Dual specificity protein kinase CLK4 (CLK4, Homo sapiens, UniProt Q9HAZ1): 76.5%
Cyclin-dependent kinase 1, with cyclin A (CDK1, Homo sapiens, UniProt P06493): 94.8%
Misshapen-like kinase 1 (MINK1, Homo sapiens, UniProt Q8N4C8): 78.4%
Calcium/calmodulin-dependent protein kinase type IV (CAMK4, Homo sapiens, UniProt Q16566): 101%
Calcium/calmodulin-dependent protein kinase type 1B (PNCK, Homo sapiens, UniProt Q6P2M8): 96.5%
Serine/threonine-protein kinase Nek3 (NEK3, Homo sapiens, UniProt P51956): 95.5%
Serine/threonine-protein kinase MARK2 (MARK2, Homo sapiens, UniProt Q7KZI7): 91.4%
